Assay results collected from several papers.
Every numbered part comes from another study and shows a few of its results, in no order.
Chain of UniProt O15294 (whole entry, looked up): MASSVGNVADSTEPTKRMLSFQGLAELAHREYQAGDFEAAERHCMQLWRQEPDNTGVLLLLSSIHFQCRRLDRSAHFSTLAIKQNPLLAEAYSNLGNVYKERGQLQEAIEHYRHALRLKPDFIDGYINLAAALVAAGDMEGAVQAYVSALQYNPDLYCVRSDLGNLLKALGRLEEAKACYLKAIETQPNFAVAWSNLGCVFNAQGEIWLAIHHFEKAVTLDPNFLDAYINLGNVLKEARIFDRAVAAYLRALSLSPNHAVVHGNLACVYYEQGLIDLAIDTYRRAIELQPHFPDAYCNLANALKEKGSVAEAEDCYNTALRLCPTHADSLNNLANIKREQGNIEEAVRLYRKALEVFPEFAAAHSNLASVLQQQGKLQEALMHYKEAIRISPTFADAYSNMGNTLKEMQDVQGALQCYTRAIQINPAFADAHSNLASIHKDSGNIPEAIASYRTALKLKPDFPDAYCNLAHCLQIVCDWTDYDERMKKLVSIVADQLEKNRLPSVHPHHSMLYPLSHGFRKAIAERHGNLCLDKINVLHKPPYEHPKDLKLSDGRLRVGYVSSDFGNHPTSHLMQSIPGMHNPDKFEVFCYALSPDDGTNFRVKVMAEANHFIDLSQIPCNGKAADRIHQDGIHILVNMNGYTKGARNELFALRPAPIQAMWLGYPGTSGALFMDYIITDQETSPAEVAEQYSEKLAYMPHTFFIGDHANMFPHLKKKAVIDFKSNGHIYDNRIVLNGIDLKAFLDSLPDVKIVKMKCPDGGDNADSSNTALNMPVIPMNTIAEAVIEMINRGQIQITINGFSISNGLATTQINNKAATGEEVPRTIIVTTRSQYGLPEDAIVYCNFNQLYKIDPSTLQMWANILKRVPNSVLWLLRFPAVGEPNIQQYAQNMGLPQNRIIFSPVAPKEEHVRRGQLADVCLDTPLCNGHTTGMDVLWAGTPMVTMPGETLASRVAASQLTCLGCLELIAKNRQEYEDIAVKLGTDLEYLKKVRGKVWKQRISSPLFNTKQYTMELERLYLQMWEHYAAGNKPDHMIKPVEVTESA

Study 1
Target: Transcription factor SOX-2, HMG box (SOX2, Homo sapiens, UniProt P48431, residues 37-118)
Chain of UniProt P48431 (37-118, looked up): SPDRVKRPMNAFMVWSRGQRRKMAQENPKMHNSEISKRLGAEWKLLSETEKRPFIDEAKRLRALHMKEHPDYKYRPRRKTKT
Method: protein-binding microarray
Form: hairpin DNA
Medium: in vitro
Concentration: not given
Notes: whole hairpin DNA, median over replicate spots
Baseline: not given
Direction: higher = stronger binding
Quantity: median fluorescence
Shared flanks, not repeated: GCAGGCCC … GGGCCTGCACACTCTTTCCCTACACGAC
Strand = CCAATGGGCCTCCTGGCCCATTGG (5mC at 9); result = 2540 a.u.
Strand = CCAATGGGCCTCCTGGCCCATTGG; result = 2520 a.u.
Strand = ACAATGAGCCTCCTGGCTCATTGT; result = 3380 a.u.
Strand = TCAATGGGCCTCCTGGCCCATTGA (5mC at 8); result = 3150 a.u.
Strand = GCAATGGGCCTCCTGGCCCATTGC (5mC at 32); result = 2500 a.u.
Strand = ACATTGGGCCTCCTGGCCCAATGT; result = 2550 a.u.
Strand = CAAATGGGCCTCCTGGCCCATTTG; result = 2520 a.u.
Strand = CGAATGGGCCTCCTGGCCCATTCG (5mC at 9); result = 2530 a.u.

Study 2
Target: Histone acetyltransferase KAT6A, winged helix 2, GST fusion (KAT6A, Homo sapiens, UniProt Q92794, residues 85-181)
Method: protein binding microarray
Form: double-stranded DNA, one strand shown
Medium: in vitro
Concentration: not given
Notes: 8-mer, flanks averaged, mean of 2 arrays, mostly near background
Baseline: not given
Direction: higher = stronger binding
Quantity: E-score
Target sequence (chain): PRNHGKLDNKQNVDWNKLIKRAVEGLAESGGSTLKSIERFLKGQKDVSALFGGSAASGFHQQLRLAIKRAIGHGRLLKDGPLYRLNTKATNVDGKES
Strand = GCCCCACA; result = 0.0966
Strand = CGATGGCG; result = -0.0543
Strand = ACTCATGG; result = -0.12
Strand = CAACCTGG; result = 0.0511
Strand = GCCTATCA; result = 0.0207
Strand = ACCTATTC; result = -0.169
Strand = CCAACTGG; result = 0.0406
Strand = AAGGTTAG; result = -0.223

Single results of other studies
Molecule = QWQHQTRHVHIPHNH; target = OGT (Homo sapiens, UniProt O15294); test = binding, phage display NGS; system = peptide; conditions = concentration not given; how to read = baseline: input library; quantity = enrichment fold change; result = 6.8
Molecule = PhoQ, residues 284 288 289 292 302 303 SVTLVV; target = PhoP, residues 12 14 15 18 19 SEGLL (Escherichia coli, UniProt P23836); test = Sort-seq, measured: YFP reporter; system = E. coli; conditions = PhoQ-PhoP variant library, added: 10 µM Mg2+; how to read = baseline: high Mg2+ state, higher = stronger signaling; quantity = fold induction; result = 15.2

A few entries again (study 2):
Strand = ACCTATTC; result = -0.169
